Results from different studies.
Compare with care: the assays were run in different laboratories. ± marks the error that the study gave. ≈ marks a conversion by molar mass, not a printed value.
lasR: Transcriptional activator protein LasR (lasR, Pseudomonas aeruginosa, UniProt P25084)
KCNQ3/KCNQ2: Voltage-gated potassium channel, KQT; KCNQ2(Kv7.2)/KCNQ3(Kv7.3) (KCNQ3/KCNQ2, Homo sapiens, UniProt O43525+O43526)
lecA: PA-I galactophilic lectin (lecA, Pseudomonas aeruginosa, UniProt Q05097)

`CN1C(=O)[C@H](Cc2ccccc2)N(C)C(=O)[C@@H]2[C@H]1CCN2Cc1cc(Cl)cc(Cl)c1`: “dissociation rate constant” 0.0369 s⁻¹ (NKG2-D type II integral membrane protein (KLRK1, Homo sapiens, UniProt P26718); surface plasmon resonance).
`O=P(O)(O)Oc1ccccc1` — result for “relative catalytic efficiency”: 83 (Alkaline phosphatase PafA (pafA, Elizabethkingia meningoseptica, UniProt Q9KJX5, R164A); Chryseobacterium meningosepticum; pH 8.0; relative to: wild type over mutant kcat/KM).
`Cc1cc(O)cc(C)c1CC(N)C(=O)NC1CCNc2c1cc(Cc1ccccc1)cc2C(C)(C)C` (stereo not drawn) gave an efficacy of 83% (Oprm1 (Rattus norvegicus, UniProt P33535); agonist; C6 cells expressing MOR; relative to: DAMGO at 10 µM).
`NS(=O)(=O)c1ccc(NC(=O)c2ccccc2SSc2ccccc2C(=O)Nc2ccc(S(N)(=O)=O)cc2)cc1` gave a stoichiometry of 1.97 (Gag-Pol polyprotein, integrase (gag-pol, Human immunodeficiency virus type 1 group M subtype B, UniProt P04585, C1427S); zinc release, PAR absorbance, measured: zinc; pH 7.0, compound per IN protomer).
`O=[N+]([O-])c1ccc(OP(=O)(O)O)cc1` gave a kcat of 1.8 s^–1 (Alkaline phosphatase PafA (pafA, Elizabethkingia meningoseptica, UniProt Q9KJX5, T79S); substrate; pH 8.0).
With `O=C(Cn1cc(CC2CCCCC2)nn1)N[C@H]1CCOC1=O` the activation was 47% (lasR; reporter gene, agonist; Escherichia coli, DH5α pJN105L/pSC11; 100 µM; relative to: OdDHL at same concentration).
With `CC(=O)N[C@@H](CC(C)C)C(=O)N[C@@H](CCC(=O)O)C(=O)N[C@@H](Cc1c[nH]cn1)C(=O)N[C@@H](CC(=O)O)C(=O)Nc1ccc2c(C)cc(=O)oc2c1` the Vmax was 792 ± 16.7 RFU/min (Caspase-6 (CASP6, Homo sapiens, UniProt P55212); substrate cleavage, substrate, fluorogenic AMC release; enzyme 0.25 activity units/µL).
`Cn1cc(-c2cccc(CN3CCC4(CC3)COc3c4ccc4c3CN([C@H]3CCC(=O)NC3=O)C4=O)c2)cn1` has a degradation of 70% (Ikzf2/Crbn (Mus musculus, UniProt P81183+Q8C7D2, I391V); mouse Crbn I391V, spleen; oral, 10 mg/kg single dose, 6 h).
`CC[C@H](C)[C@@H]1NC(=O)[C@H](Cc2ccc(O)cc2)NC(=O)[C@@H](N)CSSC[C@@H](C(=O)N2CCC[C@H]2C(=O)N[C@@H](CC(C)C)C(=O)NCC(N)=O)NC(=O)[C@H](CC(N)=O)NC(=O)[C@H](CCC(N)=O)NC1=O` has an Emax of 5060 RFU (Oxytocin receptor (OXTR, Homo sapiens, UniProt P30559); membrane hyperpolarisation; CHO cells).
Under “binding affinity reduction”, `CC(C)C[C@@H](N)C(=O)NCC(=O)N[C@H](C)C(=O)N[C@H](CO)C(=O)N[C@H](Cc1c[nH]c2ccccc12)C(=O)N[C@H](Cc1c[nH]cn1)C(=O)N[C@H](CCCNC(=N)N)C(=O)N1CCC[C@@H]1C(=O)N[C@H](CC(=O)O)C(=O)N[C@H](CCCCN)C(=O)N[C@H](CSSC[C@@H](NC(=O)[C@@H](CCCCN)NC(=O)[C@@H](CC(=O)O)NC(=O)[C@H]1CCCN1C(=O)[C@@H](CCCNC(=N)N)NC(=O)[C@@H](Cc1c[nH]cn1)NC(=O)[C@@H](Cc1c[nH]c2ccccc12)NC(=O)[C@@H](CO)NC(=O)[C@@H](C)NC(=O)CNC(=O)[C@H](N)CC(C)C)C(=O)N[C@H](C)C(=O)N[C@H](CC(C)C)C(=O)NCC(=O)N[C@H](Cc1ccc(O)cc1)C(=O)N[C@H](CCC(N)=O)C(=O)N[C@H](CCCCN)C(=O)N[C@H](CCCNC(=N)N)C(=O)N1CCC[C@@H]1C(=O)N[C@H](CC(C)C)C(=O)N1CCC[C@@H]1C(N)=O)C(=O)N[C@H](C)C(=O)N[C@H](CC(C)C)C(=O)NCC(=O)N[C@H](Cc1ccc(O)cc1)C(=O)N[C@H](CCC(N)=O)C(=O)N[C@H](CCCCN)C(=O)N[C@H](CCCNC(=N)N)C(=O)N1CCC[C@@H]1C(=O)N[C@H](CC(C)C)C(=O)N1CCC[C@@H]1C(N)=O` is recorded as 40% (CXCR4 (Homo sapiens, UniProt P61073, F87A); 293 cells; 300 nM, together with: 12G5 antibody 5 µg/mL; relative to: wild type).
Under “maximal increase in GMAX”, `CCCCC/C=C\C/C=C\C/C=C\C/C=C\CCCC(=O)NC(CO)C(=O)O` (stereo in doubt) is recorded as 66% (KCNQ3/KCNQ2; activator, two-electrode voltage clamp; Xenopus oocytes).
For `CC[C@H](C)[C@H](NC(=O)[C@H](Cc1c[nH]cn1)NC(=O)[C@H](CCCCNC(=O)[C@@H](NC(=O)[C@H](CCCCN)NC(=O)[C@H](Cc1ccccc1)NC(=O)[C@H](CCCCNC(=O)[C@H](CC(C)C)NC(=O)[C@@H]1CCCN1C(=O)[C@H](CCCCN)NC(=O)CCS[C@@H]1O[C@H](CO)[C@H](O)[C@H](O)[C@H]1O)NC(=O)[C@H](CC(C)C)NC(=O)[C@@H]1CCCN1C(=O)[C@H](CCCCN)NC(=O)CCS[C@@H]1O[C@H](CO)[C@H](O)[C@H](O)[C@H]1O)[C@@H](C)CC)NC(=O)[C@@H](NC(=O)[C@H](CCCCN)NC(=O)[C@H](Cc1ccccc1)NC(=O)[C@H](CCCCNC(=O)[C@H](CC(C)C)NC(=O)[C@@H]1CCCN1C(=O)[C@H](CCCCN)NC(=O)CCS[C@@H]1O[C@H](CO)[C@H](O)[C@H](O)[C@H]1O)NC(=O)[C@H](CC(C)C)NC(=O)[C@@H]1CCCN1C(=O)[C@H](CCCCN)NC(=O)CCS[C@@H]1O[C@H](CO)[C@H](O)[C@H](O)[C@H]1O)[C@@H](C)CC)C(N)=O`, the MIC was 125 µM (≈ 473 µg/mL) (lecA; hemagglutination, inhibitor; rabbit erythrocytes; 30 min, 4 °C).
`O=C(N[C@H]1CCOC1=O)c1ccc(-n2cc(-c3cc(F)cc(F)c3)nn2)cc1` gave an activation of 0% (lasR; reporter gene, agonist; Escherichia coli DH5α pJN105L/pSC11; 10 µM; relative to: OdDHL 100 µM).
For `CN1C(CCCc2ccccc2)CCC1CCCc1ccccc1` (stereo not drawn), the maximal inhibition was 100% (Slc18a2 (Rattus norvegicus, UniProt Q01827); dopamine uptake; rat striatal synaptic vesicles; together with: [3H]dopamine).
`CC[C@H](C)[C@H](NC(=O)[C@H](Cc1c[nH]cn1)NC(=O)[C@H](CCCCNC(=O)[C@@H](NC(=O)[C@H](CCCCN)NC(=O)[C@H](Cc1ccccc1)NC(=O)[C@H](CCCCNC(=O)[C@H](CC(C)C)NC(=O)[C@@H]1CCCN1C(=O)[C@H](CCCCN)NC(=O)CCS[C@@H]1O[C@H](CO)[C@H](O)[C@H](O)[C@H]1O)NC(=O)[C@H](CC(C)C)NC(=O)[C@@H]1CCCN1C(=O)[C@H](CCCCN)NC(=O)CCS[C@@H]1O[C@H](CO)[C@H](O)[C@H](O)[C@H]1O)[C@@H](C)CC)NC(=O)[C@@H](NC(=O)[C@H](CCCCN)NC(=O)[C@H](Cc1ccccc1)NC(=O)[C@H](CCCCNC(=O)[C@H](CC(C)C)NC(=O)[C@@H]1CCCN1C(=O)[C@H](CCCCN)NC(=O)CCS[C@@H]1O[C@H](CO)[C@H](O)[C@H](O)[C@H]1O)NC(=O)[C@H](CC(C)C)NC(=O)[C@@H]1CCCN1C(=O)[C@H](CCCCN)NC(=O)CCS[C@@H]1O[C@H](CO)[C@H](O)[C@H](O)[C@H]1O)[C@@H](C)CC)C(N)=O`: “relative potency per galactoside” 230 (lecA; binding, isothermal titration calorimetry; divided by galactoside copies; relative to: monovalent galactoside KD over ligand KD).
For `NCC1OC(OC(CO)C2CC(O)C(n3ccc(=O)[nH]c3=O)O2)C(O)C1O` (stereo not drawn), the binding enthalpy was -15 ± 1.5 kcal/mol (mraY (Aquifex aeolicus, UniProt O66465); isothermal titration calorimetry; concentration not given, wild type, together with: Mg2+).
`O=C(CC(c1ccc(O)cc1)c1cccc(O)c1)N1CCCCC1` (stereo not drawn): “STD NMR signal” 15.5% (Amyloid-beta precursor protein, amyloid-beta 1-40 oligomers (APP, Homo sapiens, UniProt P05067); binding, STD NMR; highest STD).
`COc1ccc(NC(=O)Cn2c(=O)c3ccccc3n(CC(=O)Nc3cc([125I])c(OC)cc3OC)c2=O)cc1` has a kidney binding of 104 PSL/mm² (Sphingosine 1-phosphate receptor 2 (Rattus norvegicus, UniProt P47752); in vitro autoradiography; Sprague-Dawley rat, STZ diabetic, kidney sections; dose not given).
For `Cc1cc(C2=CCN(CC3OCCO3)CC2)cc([N+](=O)[O-])c1N`, the Emax was 12.1 ± 2.36% (HTR2B (Homo sapiens, UniProt P41595); calcium mobilisation, agonist; relative to: 5-HT).
Under “energy transfer efficiency”, `CC(C)P(=[Se])(NP(=[Se])(C(C)C)C(C)C)C(C)C` is recorded as 45.2% (Alpha-amylase (Bacillus subtilis, UniProt P00691); binding, FRET; 298 K).
`CN(C)C(=O)[C@@H](NC(=O)c1cnccc1-c1ccc(C(F)(F)F)cc1)c1cccc(C(F)(F)F)c1` has a maximum inhibition of 100% (NKG2-D type II integral membrane protein, with MICA (KLRK1, Homo sapiens, UniProt P26718); ligand binding, inhibitor, TR-FRET; HEK293 expressing NKG2D and DAP10; together with: MICA-Alexa647; relative to: positive control).
`CC(C)C[C@H](NC=O)C(=O)N[C@@H](C)C(=O)N[C@@H](C)C(=O)N[C@@H](CC(=O)O)C(=O)N[C@@H](CC(C)C)C(=O)N[C@@H](CC(C)C)C(=O)N[C@@H](C)C(=O)N[C@@H](C)C(=O)N[C@@H](CC(C)C)C(=O)NCC(=O)N[C@@H](CC(=O)O)C(=O)N[C@@H](CC(C)C)C(=O)N[C@@H](C)C(=O)N[C@@H](CCCCN)C(=O)N[C@@H](Cc1c[nH]c2ccccc12)C(=O)N[C@@H](CC(C)C)C(=O)N[C@@H](CC(C)C)C(=O)N[C@@H](CC(=O)O)C(=O)N[C@@H](C)C(=O)N[C@@H](CC(C)C)C(=O)N[C@@H](C)C(=O)N[C@@H](CCCCN)C(=O)N[C@@H](C)C(=O)N[C@@H](C)C(=O)N[C@@H](CCCCN)C(=O)N[C@@H](CCCCN)C(=O)O` (racemic) — result for “binding free energy”: -7.4 kcal/mol (POPC membrane; membrane binding, stopped-flow FRET; mole fraction units, room temperature).
`CCN(Cc1ccccc1)C(=O)CCc1nc(CN2CCN(C(=O)Cc3ccc(OC)c(OC)c3)CC2)no1` gave an activation V1/2 of -41.9 ± 2.47 mV (KCNQ3/KCNQ2; potassium current, whole-cell patch clamp; CHO, stable; 3 µM).
For `O=c1c(Cl)c(Cl)cnn1Cc1ccccc1`, the MIC was 5.7 µM (≈ 1.45 µg/mL) (Disulfide bond formation protein B (Escherichia coli, UniProt P0A6M2); DsbB inhibition reporter; Escherichia coli, agar; calculated, likely underestimated).

Some of these lines once more:
For `CN1C(CCCc2ccccc2)CCC1CCCc1ccccc1` (stereo not drawn), the maximal inhibition was 100% (Slc18a2 (Rattus norvegicus, UniProt Q01827); dopamine uptake; rat striatal synaptic vesicles; together with: [3H]dopamine).
`CC[C@H](C)[C@H](NC(=O)[C@H](Cc1c[nH]cn1)NC(=O)[C@H](CCCCNC(=O)[C@@H](NC(=O)[C@H](CCCCN)NC(=O)[C@H](Cc1ccccc1)NC(=O)[C@H](CCCCNC(=O)[C@H](CC(C)C)NC(=O)[C@@H]1CCCN1C(=O)[C@H](CCCCN)NC(=O)CCS[C@@H]1O[C@H](CO)[C@H](O)[C@H](O)[C@H]1O)NC(=O)[C@H](CC(C)C)NC(=O)[C@@H]1CCCN1C(=O)[C@H](CCCCN)NC(=O)CCS[C@@H]1O[C@H](CO)[C@H](O)[C@H](O)[C@H]1O)[C@@H](C)CC)NC(=O)[C@@H](NC(=O)[C@H](CCCCN)NC(=O)[C@H](Cc1ccccc1)NC(=O)[C@H](CCCCNC(=O)[C@H](CC(C)C)NC(=O)[C@@H]1CCCN1C(=O)[C@H](CCCCN)NC(=O)CCS[C@@H]1O[C@H](CO)[C@H](O)[C@H](O)[C@H]1O)NC(=O)[C@H](CC(C)C)NC(=O)[C@@H]1CCCN1C(=O)[C@H](CCCCN)NC(=O)CCS[C@@H]1O[C@H](CO)[C@H](O)[C@H](O)[C@H]1O)[C@@H](C)CC)C(N)=O`: “relative potency per galactoside” 230 (lecA; binding, isothermal titration calorimetry; divided by galactoside copies; relative to: monovalent galactoside KD over ligand KD).
For `NCC1OC(OC(CO)C2CC(O)C(n3ccc(=O)[nH]c3=O)O2)C(O)C1O` (stereo not drawn), the binding enthalpy was -15 ± 1.5 kcal/mol (mraY (Aquifex aeolicus, UniProt O66465); isothermal titration calorimetry; concentration not given, wild type, together with: Mg2+).
